Experimental data from different studies.
Lines come from different studies, so protocols differ. Several values in a cell are separate wells, animals, samples, runs or records. ± gives the spread as reported.

Compound | assay | system | setting | scale | measurement | result
CCc1cc(C(=O)NC)c2nccc(N3CCc4c(cc(Cn5ccnc5)cc4-c4cn(C)nc4C(F)(F)F)C3=O)c2c1 | item: Lymph | Sprague Dawley rat | oral, 100 mg/kg once daily, 7 days | reference: vehicle | change in clinical chemistry or haematology parameter | -23.9%
C[C@@H](O)CCOC(=O)C[C@@H](C)O | – | human | oral drink, dose not given, 30 min post dose, mean | – | diastolic blood pressure | 67 mmHg
CN1CCN(C(=O)CN(c2cc(C(F)(F)F)ccc2Cl)S(=O)(=O)c2ccccc2)CC1 | – | octanol/buffer | pH 7.4 | – | logD | 2.8
C=CCN1CC(=O)N2[C@@H](Cc3ccc(O)cc3F)C(=O)N(Cc3cccc(N4CC(N5CCN(CC)CC5)C4)n3)C[C@@H]2N1C(=O)NCc1ccccc1 | – | advanced solid tumour patients | oral, 120 mg twice daily, any grade, dose-escalation | – | treatment-related vomiting | 25%
CCOC(=O)N1C[C@@H](C2CCCCC2)N[C@@H](c2cccc(Br)c2)C1 | shake-flask, 1-octanol/buffer | – | pH 7.4 | – | logD | > 4.7
c1ccc(-c2cccc(Nc3nccc(NC4CCCCC4)n3)c2)cc1 | – | MDCKII-WT cells | 10 µM, pH 7.4 | reference: Papp B-A over A-B | efflux ratio | 14.8
CCn1ncc2c1-c1cnc(N)c(c1)O[C@H](C)c1cc(F)ccc1-c1nn(C)nc1C2 | – | female BALB/c nude mice, PDX | oral, 5 mg/kg once daily for 1 days, 12 h | – | unbound plasma trough concentration | 37 ± 17 nM
CCC[C@H](C)[C@H]1CN(C(=O)OCC)C[C@@H](c2ccc(C(F)(F)F)cc2)N1 | shake-flask, 1-octanol/buffer | – | pH 7.4 | – | logD | > 4.7
OCc1nc2ccc(NCc3ccc(C(F)(F)F)cc3)cc2[nH]1 | – | Balb/c mouse, male, kidney | oral, 10 mg/kg, 6 h | – | tissue concentration | 489 ± 97.3 ng/g
COc1cc(Nc2ncc3c(n2)-c2ccc(Cl)cc2C(c2c(F)cccc2OC)=NC3)ccc1C(=O)O | item: decreased neutrophil count, all grades | cancer patients, phase 1/2 | oral, dose not given, added: pembrolizumab | – | patients with adverse event | 42%
CC[C@H](C)[C@H](NC(=O)[C@H](Cc1ccccc1)NC(=O)[C@H](CCC(=O)O)NC(=O)[C@H](CCCCNC(=O)COCCOCCNC(=O)COCCOCCNC(=O)CC[C@H](NC(=O)CCCCCCCCCCCCCCCCC(=O)O)C(=O)O)NC(=O)[C@H](C)NC(=O)[C@H](C)NC(=O)[C@H](CCC(N)=O)NC(=O)CNC(=O)[C@H](CCC(=O)O)NC(=O)[C@H](CC(C)C)NC(=O)[C@H](Cc1ccc(O)cc1)NC(=O)[C@H](CO)NC(=O)[C@H](CO)NC(=O)[C@@H](NC(=O)[C@H](CC(=O)O)NC(=O)[C@H](CO)NC(=O)[C@@H](NC(=O)[C@H](Cc1ccccc1)NC(=O)[C@@H](NC(=O)CNC(=O)[C@H](CCC(=O)O)NC(=O)C(C)(C)NC(=O)[C@@H](N)Cc1cnc[nH]1)[C@@H](C)O)[C@@H](C)O)C(C)C)C(=O)N[C@@H](C)C(=O)N[C@@H](Cc1c[nH]c2ccccc12)C(=O)N[C@@H](CC(C)C)C(=O)N[C@H](C(=O)N[C@@H](CCCNC(=N)N)C(=O)NCC(=O)N[C@@H](CCCNC(=N)N)C(=O)NCC(=O)O)C(C)C | 12-lead Holter ECG | healthy humans | subcutaneous, 1.5 mg once weekly, 36 h, steady state | reference: placebo | QTcF change from baseline | -2.5 ms
C=CC(=O)Nc1cc(Nc2nccc(-c3cn(C4CC4)c4ccccc34)n2)c(OC)cc1N(C)CCN(C)C | – | BALB/c nude mouse, LU0387 xenograft, serum | oral, 40 mg/kg | – | TCHO level | 4.63 ± 0.47 mmol/L
FC(F)(F)c1ccc(CNc2ccc(Cc3c[nH]c4ncc(Cl)cc34)cn2)cn1 | item: Pyrexia | patients with advanced solid tumours | oral, dose not given, grade 3 and 4, possibly related to drug | – | adverse event incidence | 0%
CC1(CNC(=O)c2ccc(C#CC#Cc3ccccc3)cc2)NC(=O)NC1=O (centres unmarked) | – | octanol/buffer | pH 7.4 | – | logD | 4.47
Cc1cc(NC2CCN(C(=O)OC3CCN(C(=O)/C=C/CN(C)C)C3)CC2)n2ncc(C(C)C)c2n1 (centres unmarked) | Phase I dose escalation CTCAE v4.0, item: abdominal pain | patients with advanced solid tumours | dose not given, Total dosing any grade | – | patients with adverse event | 26%
O=C1CCc2ccc(OCCCCN3CCN(c4cccc(Cl)c4Cl)CC3)cc2N1 | item: Tremor | genotyped patients, CYP2D6 normal metabolizers | dose not given, long-acting oral or depot | – | adverse event incidence | 5.8%
NC1(C(=O)N[C@@H](CCO)c2ccc(Cl)cc2)CCN(c2nc[nH]c3nccc2-3)CC1 | – | metastatic CRPC patients | dose not given, grade 3 to 4, treatment-related, all doses, added: enzalutamide 160 mg daily | – | incidence of Pyrexia | 0%
Cc1cc(-c2nccc3c2ccn3CC(=O)Nc2ccc(-c3cnccn3)cn2)ccn1 | – | human | 15 mg once daily, multiple ascending dose | – | subjects with breath odour | 11.1%
[O]=[Co].[O]=[Co][O][Co]=[O] | – | rat, female, faeces, 24-h collection | oral gavage, single, 300 mg/kg (220 mg Co/kg), day 1, vehicle 0.5% HPMC | reference: vehicle control subtracted | cobalt concentration | 5340 µg/g

Compound | assay | system | setting | scale | measurement | result
CC1(C)OC[C@H](c2ccc(F)cc2Cl)N[C@@H]1c1ccc(Cl)c(Cl)c1 | shake-flask, 1-octanol/buffer | – | pH 7.4 | – | logD | > 4.7
C[Si]1(C)O[Si](C)(C)O[Si](C)(C)O[Si](C)(C)O[Si](C)(C)O1 | – | 1-octanol/air | concentration not given | – | enthalpy of phase change | -11.3 kcal/mol
CSc1cc(C)nc(SC)c1NC(=O)CN1CCN(CCSc2nc3ccccc3[nH]2)CC1.Cl | – | mouse, cerebrum | intranasal, 7 days daily, 120 min, HA 10 µL, LLOQ 0.5 ng/g | – | tissue concentration | not detected
CN(C)CCCN1c2ccccc2CC(O)c2ccccc21 (centres unmarked) | reverse phase LC, C18 | acetonitrile gradient, 0.1% formic acid | converted from retention time | reference: Valko CHI standards | chromatographic hydrophobicity index | 46.3
COc1cc(N2CCC3(CCN(C)CC3)CC2)ccc1Nc1ncc(Cl)c(Nc2ccccc2P(C)(C)=O)n1 | population PK model | human | oral, final model | – | V1/F | 348 L
CC(C)n1c(Nc2cccnc2)nc2cnc(Nc3ccc(N4CCN(C)CC4)cc3)nc21 | item: alanine aminotransferase increased | healthy human, male | oral, dose not given, CTCAE grade 1-3 | – | subjects with TEAE | 11.9%
CCc1c(-c2ccccc2)c(-c2ccccc2)nn1-c1ccccc1-c1cccc(OCC(=O)O)c1 | – | Sprague-Dawley rat, stomach | oral, 10 mg/kg, 1 h | – | concentration | 37600 ng/g and 26500 ng/g
Cc1cn([C@H]2C[C@H](N=[N+]=[N-])[C@@H](CO)O2)c(=O)[nH]c1=O | – | human cells, human | – | – | CC50 | > 10 µM
Cc1nc(C)c(-c2ccnc(N)n2)s1 | – | octanol/buffer | 67 µM, pH 7.4 | – | logD | 1.67
CCN1CCN(Cc2ccc(Nc3ncc(F)c(-c4cc(F)c5nc6n(c5c4)[C@H](C)CCC6)n3)nc2)CC1 | – | human, plasma | 300 mg multiple dosing, mean | – | CL/F | 41.2 L/h
O=S(=O)(NCCSc1ccccn1)c1ccc(Br)cc1 | – | octanol/buffer | pH 7.4 | – | logD | 3.03
Cc1cccc([C@H]2N[C@@H](c3ccc(Cl)c(Cl)c3)CO[C@@H]2C)c1 | shake-flask, 1-octanol/buffer | – | pH 7.4 | – | logD | > 4.7
CN(C(=O)C(C)(C)c1cc(C(F)(F)F)cc(C(F)(F)F)c1)c1cnc(N2C[C@H]3COCCN3C[C@H]2CO)cc1-c1ccc(F)cc1[14CH3] | metabolite formation, item: M30/34 formation | human liver microsomes | 1 min, pH 7.4 | – | Km | 0.319 µM
C1CCc2c(c(N3CCOCC3)nc3sc4c(N5CCNCC5)nnnc4c23)C1 | UHPLC-MS peak area | human liver microsomes | 1 µM, 15 min, pH 7.4 | – | metabolite share of drug-related material | 81.7%
Cc1ccc(C)c(OCCCC(C)(C)C(=O)O)c1 | HPLC C18 retention | – | pH 7.4 | reference: calibration standards | chromatographic hydrophobicity index | 73.7
FC(F)(F)c1ccc(CNc2ccc(Cc3c[nH]c4ncc(Cl)cc34)cn2)cn1 | item: Insomnia | patients with advanced solid tumours, non-TGCT cohort | oral, 1000 mg/day, any grade | – | treatment-related adverse events | 14%
CCn1cc(C(=O)N2CCOCC2)c(=O)c2cc(NC3Cc4ccccc4C3)cnc21 | – | human, fasted | oral suspension, 150 mg single dose, arithmetic mean | – | half-life | 9.26 h
CC(C)(C)c1ccc([C@H]2COC[C@H](C3CCCC3)N2)cc1 | shake-flask, 1-octanol/buffer | – | pH 7.4 | – | logD | > 4.7
O=C(Cc1ccccc1[N+](=O)[O-])Nc1ccccc1C(=O)N1CCOCC1 | – | octanol/buffer | pH 7.4 | – | logD | 1.24

Compound | assay | system | setting | scale | measurement | result
Cn1cc(-c2cn3nccc3c(-c3cnn([C@]4(CC#N)C[C@@H](C#N)C4)c3)n2)cn1 | – | healthy humans fed, plasma | oral, 400 mg once daily, day 10, geometric mean | – | peak to trough ratio | 26.9
NC(=O)N1c2ccccc2C=Cc2ccccc21 | item: skin disorders (SOC) | human male | oral, dose not given, AEs, treatment-related, on drug, CTCAE | – | adverse events incidence | 13%
COc1cc2c3cc1Oc1c(OC)c(OC)cc4c1[C@@H](Cc1ccc(O)c(c1)Oc1ccc(cc1)C[C@@H]3N(C)CC2)N(C)CC4 | – | mouse plasma, K3EDTA | 0 h, 25-26 °C, room temperature | – | remaining compound | 100%
Cn1cc(Nc2nccc(-c3ccc4c(c3)CN(C3COC3)CC[C@H]4NC(=O)c3cn(C(C)(C)C)nn3)n2)cn1 | item: naive B cell count | human, clinical trial, whole blood | 150 mg twice daily, follow-up | – | percent change from baseline | -15.7%
COc1ncc(-c2nc3c(n2C(C)C)[C@H](c2ccc(Cl)cc2)N(c2cc(Cl)cn(C)c2=O)C3=O)c(OC)n1 | – | human patients, plasma | oral, 4 mg, cycle 1 day 1, low-dose | – | median half-life | 14.3 h
CC(C)COC(=O)c1ccc2c(c1)/C(=N/Nc1ccc(S(N)(=O)=O)cc1)C(=O)N2 | – | octanol/buffer | 67 µM, pH 7.4 | – | logD | 1.02
CNC(=O)c1ccc(-c2cnc3ncc(Cc4ccc5ncccc5c4)n3n2)cc1F | – | human mild hepatic impairment | oral, 200 mg single dose, adjusted geometric mean | – | unbound Cmax | 38.8 ng/mL
CCN1/C(=C/C(C)=O)Sc2ccc(F)cc21 | – | cynomolgus monkey | oral, 10 mg/kg, 6 h post-dose | – | diastolic blood pressure | 81 ± 5 mmHg
O=C(COc1ccc(Cl)cc1)NC12CC(c3nnc([C@H]4C[C@@H](OC(F)(F)F)C4)o3)(C1)C2 | – | human both sexes | oral, 145 mg once daily, 14 days | – | participants with procedural pain | 57.1%
CCC[C@H](C)[C@H]1CN(C(=O)OCC)C[C@@H](c2ccc(C(C)(C)C)cc2)N1 | shake-flask, 1-octanol/buffer | – | pH 7.4 | – | logD | > 4.7
O=C(Nc1cccc2cccnc12)c1ccc(N2C(=O)[C@@H]3[C@H](C2=O)[C@@H]2C=C[C@H]3C2)cc1 | PAMPA | – | 16 h | – | membrane retention | 68.5 ± 3.4%
CCOC(=O)N1C[C@@H](c2cccc(Br)c2)N[C@@H](c2ccc(F)c(C#N)c2)C1 | shake-flask, 1-octanol/buffer | – | pH 7.4 | – | logD | > 4.7
CN(CC#N)C(=O)C[C@H](Nc1nc2ccccc2[nH]1)c1cccc(C(F)(F)F)c1 | – | human | intravenous infusion, 4 mg/kg, 1 mg/mL formulation | – | apparent clearance | 14.8 ± 5.33 L/h
Cc1ccc(N(C)C(=O)/C=C/c2ccco2)cc1 | cold plate test | mouse | oral, 30 mg/kg daily for 7 days, day 8, 30 min after dose | – | licking latency | 20.2 ± 0.8 s
CN(CCC#N)C1CCN(C(=O)Cn2cc(NC(=O)c3cnn4cccnc34)c(-c3cc(Cl)ccc3OC(F)F)n2)CC1 | – | human, single ascending dose | 1.5 mg, day 4 | reference: baseline | LDL cholesterol change | 5.8 mg/dL
Cc1ccc(Nc2ncnc3ccc(-c4cccc(N5CCOCC5)c4)cc23)cc1 | – | human liver microsomes | – | – | CLint | 100 µL/min/mg
Cc1nc2ccc(OCc3ccc(C(F)(F)F)cc3)cc2[nH]1 | – | Balb/c mouse, male, liver | intravenous, 1 mg/kg, 3 h | – | tissue concentration | 1620 ± 192 ng/g
CC(C)(C(=O)N1CCOc2c(C#N)cncc2C1)C(F)F | item: skin abrasion | human | oral, 20 mg once daily, 14 days, multiple ascending dose | – | subjects with adverse event | 0%
